# Experimental data of several laboratories.
# Each numbered part is a random draw from the data of one study; scales do not carry over between parts.

# Study 1
# Target: Centromere-binding protein 1, full length, N-terminal tag (CBF1, Saccharomyces cerevisiae, UniProt P17106, residues 1-351)
# UniProt P17106, sequence (whole entry, looked up): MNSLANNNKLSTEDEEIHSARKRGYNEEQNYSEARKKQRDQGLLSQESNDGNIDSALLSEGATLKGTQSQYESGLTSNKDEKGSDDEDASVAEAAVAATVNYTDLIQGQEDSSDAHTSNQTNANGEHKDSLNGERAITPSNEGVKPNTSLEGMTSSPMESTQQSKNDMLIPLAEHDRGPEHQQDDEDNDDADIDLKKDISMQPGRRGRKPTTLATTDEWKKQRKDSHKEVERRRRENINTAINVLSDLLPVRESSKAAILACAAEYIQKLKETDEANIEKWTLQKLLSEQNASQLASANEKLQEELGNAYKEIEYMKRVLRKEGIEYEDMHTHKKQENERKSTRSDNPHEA
# Method: protein-binding microarray
# Form: double-stranded DNA, one strand shown
# Medium: in vitro
# Concentration: 0.8 µM
# Notes: whole 60-bp probe, no competitor
# Reading: higher = stronger binding
Strand,fluorescence intensity
CTATTGCTTGAGCCACACGTGTATATAAAAATGTTCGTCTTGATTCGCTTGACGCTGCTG,4360 a.u.
GAAATATCATGTTGTGATGTTAGAAAATATGGCTAGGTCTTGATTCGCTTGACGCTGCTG,568 a.u.
CTAAAGTCATTTACCCAGGCGTGATTATAAATTTTCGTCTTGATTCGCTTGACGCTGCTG,1250 a.u.
CTAGTAGTAACTATCCTGATGTTGATCCTAGTTTTCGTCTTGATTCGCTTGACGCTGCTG,489 a.u.
CTAGAATCAGTTTGTCTCCTGAAGGTTTTTTTGTTCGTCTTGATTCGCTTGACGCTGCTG,512 a.u.
GAATTAATTTTGCATCGGGTGATAACAACACCGTAGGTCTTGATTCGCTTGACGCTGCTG,568 a.u.
CTATTGCAATATCATGATGTTATAGAGTAACGTTTCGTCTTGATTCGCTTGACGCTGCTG,538 a.u.
GAACCCAAAATGTGTAACATCATCGAGTATAATTAGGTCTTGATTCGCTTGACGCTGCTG,524 a.u.
CTATACCACCGCCACTAGGTGACGCTAACCTACTTCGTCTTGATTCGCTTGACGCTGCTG,497 a.u.
GAACGTGCATGTATGTGCGTGCATGTATGTGTGTAGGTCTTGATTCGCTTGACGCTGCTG,534 a.u.
CTAAATGCCTTTGTCCATGTGATAAACCGTGCATTCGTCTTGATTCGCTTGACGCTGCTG,1100 a.u.
CCTAACTACTATAACCACGATACATAGCTTCGTACAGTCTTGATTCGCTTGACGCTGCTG,548 a.u.
CCTAACTACTATAACCACGAGACATAGCTTCGTACAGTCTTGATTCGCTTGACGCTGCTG,738 a.u.
CTATTAGGTGCCTGTCACGCAATCCGTCCGCTGTTCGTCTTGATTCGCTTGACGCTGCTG,606 a.u.
GAACAATGCTGACAGCTGAGTATTGCAACACAATAGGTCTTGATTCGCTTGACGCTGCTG,485 a.u.
CCTAACTACTATAACAACGTCACATAGCTTCGTACAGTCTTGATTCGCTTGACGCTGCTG,536 a.u.

# Study 2
# Target: Sal-like protein 4, full length isoform A (SALL4, Homo sapiens, UniProt Q9UJQ4, residues 1-1053)
# UniProt Q9UJQ4, sequence (whole entry, looked up): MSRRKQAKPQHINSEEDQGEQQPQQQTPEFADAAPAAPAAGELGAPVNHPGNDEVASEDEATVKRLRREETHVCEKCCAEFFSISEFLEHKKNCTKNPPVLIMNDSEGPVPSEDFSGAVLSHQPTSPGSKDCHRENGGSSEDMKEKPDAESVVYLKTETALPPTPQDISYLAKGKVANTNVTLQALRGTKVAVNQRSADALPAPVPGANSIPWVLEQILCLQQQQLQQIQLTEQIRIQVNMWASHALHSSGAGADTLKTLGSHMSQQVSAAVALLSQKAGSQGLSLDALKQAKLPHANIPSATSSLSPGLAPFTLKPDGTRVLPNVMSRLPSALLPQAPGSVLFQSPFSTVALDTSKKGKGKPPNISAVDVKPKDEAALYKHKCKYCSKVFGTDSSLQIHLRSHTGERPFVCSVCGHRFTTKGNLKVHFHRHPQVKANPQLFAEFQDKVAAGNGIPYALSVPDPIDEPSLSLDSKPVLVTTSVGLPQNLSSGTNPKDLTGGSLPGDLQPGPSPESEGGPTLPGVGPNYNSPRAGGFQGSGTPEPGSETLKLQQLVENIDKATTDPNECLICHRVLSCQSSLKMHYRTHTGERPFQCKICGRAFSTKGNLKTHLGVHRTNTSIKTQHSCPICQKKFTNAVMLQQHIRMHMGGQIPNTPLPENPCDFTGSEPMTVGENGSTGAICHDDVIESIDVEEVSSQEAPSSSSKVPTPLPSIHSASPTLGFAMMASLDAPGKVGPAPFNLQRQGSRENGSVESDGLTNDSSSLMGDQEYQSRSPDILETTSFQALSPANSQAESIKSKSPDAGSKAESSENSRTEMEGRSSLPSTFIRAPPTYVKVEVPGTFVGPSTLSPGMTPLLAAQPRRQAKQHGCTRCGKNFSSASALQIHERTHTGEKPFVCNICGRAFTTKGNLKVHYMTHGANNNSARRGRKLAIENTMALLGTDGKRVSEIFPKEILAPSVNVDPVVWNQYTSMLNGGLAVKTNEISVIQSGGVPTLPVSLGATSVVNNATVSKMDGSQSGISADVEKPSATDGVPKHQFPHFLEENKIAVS
# Method: universal PBM
# Form: double-stranded DNA, one strand shown
# Medium: in vitro
# Concentration: 600 nM
# Notes: 8-mer, flanks averaged, mean of replicates
# Reading: higher = stronger binding
Strand,E-score
CTGACGCC,-0.292
ATTGGCAC,0.0782
CTTCCCTC,-0.0837
CTCCTACC,-0.0662
ATCCTTAC,0.115
ACTAGTAT,0.194
ACGATGGG,-0.216
TCCATGCA,0.0268
CACCCGGA,-0.232
CGCGCCAA,-0.256
CCTGCAAC,-0.0527
AGCAGGAC,-0.202
CGTCCGCC,-0.317
ATCATCGC,0.0769
CTTGAGCA,-0.0471
CGGTGTCA,-0.195
ATTGGATC,0.117
ATCGCTCC,-0.0716

# Study 3
# Target: Ras GTPase-activating protein-binding protein 1, RRM domain (G3BP1, Homo sapiens, UniProt Q13283)
# UniProt Q13283, sequence (whole entry, looked up): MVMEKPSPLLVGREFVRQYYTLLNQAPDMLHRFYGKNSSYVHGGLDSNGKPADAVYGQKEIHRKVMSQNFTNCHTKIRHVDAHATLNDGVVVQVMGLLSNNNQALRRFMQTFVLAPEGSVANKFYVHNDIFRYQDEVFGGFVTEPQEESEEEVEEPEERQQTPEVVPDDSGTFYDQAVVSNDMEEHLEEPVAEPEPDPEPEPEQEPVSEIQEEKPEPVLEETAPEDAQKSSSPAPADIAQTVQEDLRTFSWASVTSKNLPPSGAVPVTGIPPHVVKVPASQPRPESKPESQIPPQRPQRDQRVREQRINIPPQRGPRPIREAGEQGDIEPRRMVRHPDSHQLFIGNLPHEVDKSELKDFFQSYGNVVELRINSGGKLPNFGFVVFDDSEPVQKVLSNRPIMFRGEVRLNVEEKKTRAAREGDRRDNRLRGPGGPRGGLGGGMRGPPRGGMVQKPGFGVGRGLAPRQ
# Method: RNA Bind-n-Seq
# Form: RNA
# Medium: in vitro
# Concentration: 1 µM
# Notes: whole 134-nt RNA, ends assumed
# With: 150 mM KCl
# Relative to: input library
# Reading: higher = stronger binding
Strand,log2 enrichment
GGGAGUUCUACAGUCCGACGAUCUGGCCCUGGUGGCAUGCGGGGAGGAAGAGGUGGCCUCAUGGAUCGUGGUGGUCCCGGUGUAAUGUUCAGAGGUGGCCGUGGUGGAGACAGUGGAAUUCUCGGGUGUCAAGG,0.748
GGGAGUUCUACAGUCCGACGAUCUGGCCCUCAAGCACUGCACAGAGGCCCUUCUUUCUCUUGGCCAGUACUCCAUGGCAGACUUCACAGGGCCUUGUCCAUUGGAAAUAGAACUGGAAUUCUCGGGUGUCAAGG,-0.261
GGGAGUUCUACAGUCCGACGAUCCAAGUCCUGUGCUACACAUCGUAUGUACCGAAUCGGGUGGGUGGGUUUUUUUGGGAAAGUAUUAUGUUACGCCGUUCGGAUCUGCACUUCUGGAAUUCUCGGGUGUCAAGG,0.71
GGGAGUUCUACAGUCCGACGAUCCAAGUCCUGUGCUACACAUCGUAUGUACCGAAUCGGGUUUGGUUUGGGUUUGGGGAAAGUAUUAUGUUACGCCGUUCGGAUCUGCACUUCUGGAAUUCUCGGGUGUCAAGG,-0.284
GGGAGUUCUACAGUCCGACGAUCACCAUGCAGGUGGGCAUCUUUGGGAAGUGGGGUAAGGGGGGGAUAGGGAGGGGGGUAACACUUUGGGAACAGGUGGUCCCAGGUCGUUUCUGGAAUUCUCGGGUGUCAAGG,-0.547
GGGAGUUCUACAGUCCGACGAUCGCAGGAAGGAAAAACAAAUGGAAAUGCUUCGGAUAGUGGCAGGGGUGGGGGUUGCUAAGGAAAGGGUGGGAUGGGAGUGGGUAAAGAGUUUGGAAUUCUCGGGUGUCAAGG,1.24
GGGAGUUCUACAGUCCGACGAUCUCCUGUGCUACACAUCGUAUGUACCGAAUCGGUUUUUUGGGGUUUUUUGGUUUUUUGGGAAAGUAUUAUGUUACGCCGUUCGGAUCUGCAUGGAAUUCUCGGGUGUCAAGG,-0.138
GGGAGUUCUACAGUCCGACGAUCUGGCCCUGAUGGCAUGCGGGGAGGAAGAGGUGGCCUCAUGGAUCGUGGUGGUCCCGGUGGAAUGUUCAGAGGUGGCCGUGGUGGAGACAGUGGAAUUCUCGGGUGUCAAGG,0.991
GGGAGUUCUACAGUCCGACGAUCUGAAUCCUUCCUUGAUGAUGAAGAGGUAUGUCAACAAGGGUAAUAAUUUGUUUUCUUCUGAUUACUCUCAUAUUUUUAUUAUCUUUUAUUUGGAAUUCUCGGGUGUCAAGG,-0.25

# Further values, each from its own experiment
Molecule,target,assay,test system,setting,scale,quantity,result
"PhoQ, residues 284 288 289 292 302 303 SNGLAW","PhoP, residues 12 14 15 18 19 QYFSL (Escherichia coli, UniProt P23836)","Sort-seq, refers to: YFP reporter",E. coli,"PhoQ-PhoP variant library, with: 10 µM Mg2+","relative to: high Mg2+ state, higher = stronger signaling",fold induction,11.4

# Some of these lines once more (study 2):
Strand,E-score
TCCATGCA,0.0268
CACCCGGA,-0.232
CGCGCCAA,-0.256
CCTGCAAC,-0.0527
AGCAGGAC,-0.202
CGTCCGCC,-0.317
